# Measured values pooled from the literature.
# Observed: microbial growth
SMILES,organism,assay,system,setting,MIC
Cc1c(CN(C)C(=O)/C=C/c2cnc3c(c2)CCC(=O)N3)oc2ccccc12,Acinetobacter baumannii,broth dilution,,,> 32 µg/mL
CNC(C)C1CCC(N)C(OC2C(N)CC(N)C(OC3OCC(C)(O)C(NC)C3O)C2O)O1 (stereo not drawn),Escherichia coli,,ATCC25922,,0.78 µM
Cc1[nH]c(C(=O)Nc2ccc(C(=O)NCc3n[nH]c(=O)o3)cc2N2CCN(C(=O)OC(C)(C)C)CC2)c(Cl)c1Cl,Enterococcus faecium,broth dilution,ATCC35667,,32 µg/mL
O=C1OC[C@H]2OC(O)[C@H](O)[C@@H](O)[C@@H]2OC(=O)c2cc(O)c(O)c(O)c2-c2c(O)c(O)c3oc(=O)c4c(c(O)c(O)c5oc(=O)c2c3c54)-c2c1cc(O)c(O)c2O (mixture of isomers),Streptococcus mutans,broth dilution,,24 h,100 µg/mL
O=C(CO/N=c1\cc2n(-c3ccc(Cl)cc3)c3ccccc3nc-2cc1Nc1ccc(Cl)cc1)NCc1ccc2c(c1)CCO2,Mycobacterium avium,,,clinical isolate,> 30 µM
CN[C@H](CC(C)C)C(=O)N[C@H]1C(=O)N[C@@H](CC(N)=O)C(=O)N[C@H]2C(=O)N[C@H]3C(=O)N[C@H](C(=O)N[C@H](C(=O)O)c4cc(O)cc(O)c4-c4cc3ccc4O)[C@H](O)c3ccc(c(Cl)c3)Oc3cc2cc(c3O[C@@H]2O[C@H](CO)[C@@H](O)[C@H](O)[C@H]2O[C@H]2C[C@](C)(N)[C@H](O)[C@H](C)O2)Oc2ccc(cc2Cl)[C@H]1O,Staphylococcus epidermidis,broth dilution,,"20 h, clinical isolate",128 µg/mL
Cc1[nH]c(C(=O)Nc2ccc(C(=O)NCC(=O)O)cc2N2CC[C@@H](NC(=O)OC(C)(C)C)C2)c(Cl)c1Cl,Acinetobacter baumannii,broth dilution,ATCC19606,,> 32 µg/mL
COC1=CC(=O)c2ccccc2C1=O,Pichia kudriavzevii,broth dilution,ATCC34135,24 h,12.5 µg/mL
C[C@@H]1[C@H](O)[C@@H](C)/C=C/C=C/C=C/C=C/C=C/C=C/C=C/[C@H](O[C@@H]2O[C@H](C)[C@@H](O)[C@H](N)[C@@H]2O)C[C@@H]2O[C@](O)(C[C@@H](O)C[C@@H](O)[C@H](O)CC[C@@H](O)C[C@@H](O)CC(=O)O[C@H]1C)C[C@H](O)[C@H]2C(=O)O,Clavispora lusitaniae,broth dilution,MY1396,,0.5 µg/mL
O=C1C(Br)=C(Br)C(=O)c2ccccc21,Pichia kudriavzevii,broth dilution,ATCC34135,24 h,< 1.56 µg/mL
Cl.O=C(O)CNC(=O)c1ccc(NC(=O)c2cc(Br)c(Br)[nH]2)c(N2CCNCC2)c1,Acinetobacter baumannii,broth dilution,ATCC19606,,> 32 µg/mL
CN(Cc1ccc(C2(C(F)(F)F)CC2)cc1)Cc1cccc2ccccc12.Cl,Trichophyton mentagrophytes,broth dilution,ATCC18748,72 h,2000 µg/mL
Cl.N[C@@H]1CCN(c2cc(C(=O)NCC(=O)O)ccc2NC(=O)c2cc(Br)c(Br)[nH]2)C1,Acinetobacter baumannii,broth dilution,ATCC19606,,> 32 µg/mL
Clc1ccc(Nc2cc3nc4ccccc4n(-c4ccc(Cl)cc4)c-3c/c2=N\OCc2ccccc2)cc1,Mycobacterium avium,,,clinical isolate,> 30 µM
O=C(O)CN1C(=O)/C(=C/c2ccc(-c3ccc(N(c4ccccc4)c4ccccc4)cc3)cc2)NC1=S,Staphylococcus epidermidis,broth dilution,ATCC12228,,1.95 µg/mL
CC(C)(C)OC(=O)N[C@@H]1CCN(c2cc(C(=O)NCC(=O)O)ccc2NC(=O)c2cc(Br)c(Br)[nH]2)C1,Acinetobacter baumannii,broth dilution,ATCC19606,,> 32 µg/mL
C=C/C=C(\C)CC[C@@H]1C[C@H](O)CC(=O)O1,Salmonella enterica,,ATCC14028 TYPHIMURIUM,,128 µg/mL
Cc1[nH]c(C(=O)Nc2ccc(C(=O)NCC(=O)O)cc2N2CCN(C(=O)OC(C)(C)C)CC2)c(Cl)c1Cl,Acinetobacter baumannii,broth dilution,ATCC19606,,> 32 µg/mL
C[C@H](NC(=O)CO/N=c1\cc2n(-c3ccc(Cl)cc3)c3ccccc3nc-2cc1Nc1ccc(Cl)cc1)C(=O)O,Mycobacterium avium,,,clinical isolate,> 30 µM
CC(C)(C)OC(=O)N1CCN(c2cc(C(=O)NCC(=O)O)ccc2NC(=O)c2cc(Br)c(Br)[nH]2)CC1,Acinetobacter baumannii,broth dilution,ATCC19606,,> 32 µg/mL
CN[C@H](CC(C)C)C(=O)N[C@H]1C(=O)N[C@@H](CC(N)=O)C(=O)N[C@H]2C(=O)N[C@H]3C(=O)N[C@H](C(=O)N[C@H](C(=O)O)c4cc(O)cc(O)c4-c4cc3ccc4O)[C@H](O)c3ccc(c(Cl)c3)Oc3cc2cc(c3O[C@@H]2O[C@H](CO)[C@@H](O)[C@H](O)[C@H]2O[C@H]2C[C@](C)(N)[C@H](O)[C@H](C)O2)Oc2ccc(cc2Cl)[C@H]1O,Enterococcus faecalis,broth dilution,NCTC12697,,2 µM
C=CCO/N=c1\cc2n(-c3ccc(Cl)cc3)c3ccccc3nc-2cc1Nc1ccc(Cl)cc1,Mycobacterium avium,,ATCC700898,,0.94 µM
Cc1[nH]c(C(=O)Nc2ccc(C(=O)NCC(=O)O)cc2N2CC[C@H](N)C2)c(Cl)c1Cl.Cl,Acinetobacter baumannii,broth dilution,ATCC19606,,> 32 µg/mL
CC1(C)S[C@@H]2[C@H](NC(=O)[C@H](N)c3ccccc3)C(=O)N2[C@H]1C(=O)O,Vibrio alginolyticus,,,24 h,> 40 µM

# Repeated from above:
SMILES,organism,assay,system,setting,MIC
O=C(O)CN1C(=O)/C(=C/c2ccc(-c3ccc(N(c4ccccc4)c4ccccc4)cc3)cc2)NC1=S,Staphylococcus epidermidis,broth dilution,ATCC12228,,1.95 µg/mL
CC(C)(C)OC(=O)N[C@@H]1CCN(c2cc(C(=O)NCC(=O)O)ccc2NC(=O)c2cc(Br)c(Br)[nH]2)C1,Acinetobacter baumannii,broth dilution,ATCC19606,,> 32 µg/mL
C=C/C=C(\C)CC[C@@H]1C[C@H](O)CC(=O)O1,Salmonella enterica,,ATCC14028 TYPHIMURIUM,,128 µg/mL
